Experimental data from different studies.
Compare with care: the assays were run in different laboratories. “And” joins repeats or separate records; there may be more than shown. ± gives the spread as reported.

Molecule | target or system | assay | system | conditions | scale | quantity | value
difelikefalin | – | – | Japanese haemodialysis patients with pruritus | intravenous, 0.5 µg/kg, 8 weeks | – | PGIC much worse | 0%
heparin sodium | – | – | human | intravenous infusion, 8 IU/kg/h, day 1 to 6 | baseline: baseline | time to Emax of ACT ratio | 14 h
calcium | – | ion current, two-electrode voltage clamp | Xenopus oocytes | 10 mM, 80 mV, with: niflumic acid present | – | desensitization time constant | 12.6 s and 7.8 s and 19.6 s and 6.67 s
human LDL receptor | – | co-immunoprecipitation | human plasma | unit not given, with: Band 3 peptide 1-56 bait | baseline: negative control | co-IP enrichment | 0
VMRLQSETSV | human MAGI1-2/6 PDZ construct (MBP fusion) | automated holdup | peptide, crude extract | concentration not given, uncorrected, unit not given | baseline: biotin control resin, higher = stronger binding | binding intensity | 0.488
cotadutide | – | lipidomics, measured: hepatic total Dihydroceramides | ob/ob mice on AMLN diet, NASH model, liver | dose not given | – | metabolite level | 0.89 ± 0.11 scaled intensity
semaglutide | – | – | DIO male Wistar rats | dose not given, 2 weeks | – | fasting plasma insulin | 10.1 ± 1.5 ng/mL
maraviroc | – | hCD4+/hCD8+ T-cell ratio, flow cytometry | HIV-infected humanized mice, blood | ip, 120 mg/kg twice daily | baseline: untreated HIV-infected mice | HIV-induced immunosuppression | decreased
human delta-aminolevulinic acid dehydratase | – | co-immunoprecipitation | human RBC cytosol | DSSO crosslinker, unit not given, with: Band 3 peptide 1-56 bait | baseline: negative control | co-IP enrichment | 22600
epoetin alfa | UT7/EPO | RT-qPCR, measured: MAFF | – | concentration not given, 90 min | baseline: vehicle | mRNA fold induction | 2.5 fold
SEKHFRETEV | human MAGI1-3/6 PDZ construct (MBP fusion) | automated holdup | peptide, crude extract | concentration not given, uncorrected, unit not given | baseline: biotin control resin, higher = stronger binding | binding intensity | 0.165
UBE2I | – | co-immunoprecipitation | human RBC cytosol | no crosslinker, unit not given, with: Band 3 peptide 1-56 bait | baseline: negative control | co-IP enrichment | 0

A few entries again:
Molecule | target or system | assay | system | conditions | scale | quantity | value
heparin sodium | – | – | human | intravenous infusion, 8 IU/kg/h, day 1 to 6 | baseline: baseline | time to Emax of ACT ratio | 14 h
